Assay results collected from several papers.
Protocols differ between the studies behind these lines. ± marks the error that the study gave.

Compound | assay | system | conditions | scale | endpoint | value
CCCCc1ccc(C#Cc2ccc(OCC)cc2)cc1 |  | rat, placenta | 5000 ng/mL in perfusate, high dose, mixture of 21 LCMs |  | placental accumulation | 347 ± 509 ng/g
Cc1c([C@@H]2COC[C@H](c3ccc(-c4ccccc4)cc3)N2)cnn1-c1ccccc1 | shake-flask, LC-HRMS | aqueous buffer | 16 h, pH 6.8 |  | solubility | < 4 µM
CCCCOc1ccc([C@H]2CC[C@H](CCC)CC2)c(F)c1F |  | rat, placenta | 1000 ng/mL in perfusate, middle dose, mixture of 21 LCMs |  | placental accumulation | 15.8 ± 14.2 ng/g
CCOC(=O)N1C[C@@H](c2ccc(O)cc2)N[C@@H](C(C)C)C1 | shake-flask, LC-HRMS | aqueous buffer | 16 h, pH 6.8 |  | solubility | > 750 µM
Cc1cccc(CNC(=O)c2cn(CCNC(=O)c3ccccc3S)c3cc4c(cc3c2=O)OC(F)(F)O4)n1 |  | Sprague-Dawley rat, male, whole blood | intramuscular, 30 mg/kg of parent drug |  | MRT(0-inf) | 14.7 h
O=c1[nH]c(=O)n([C@@H]2O[C@H](CO)[C@@H](O)[C@@H]2F)cc1CCC[18F] |  | nude mice, RG2 tumour, lung | intravenous, dose not given, 2 h |  | biodistribution | 0.14 ± 0.08 %ID/g
CCN1/C(=C/C(C)=O)Sc2ccc(F)cc21 |  | cynomolgus monkey | oral, 30 mg/kg, 1 h post-dose | baseline: pre-dose | diastolic blood pressure change | 97.4 ± 5.9%
C[C@@H](c1ncncc1F)[C@](O)(Cn1cncn1)c1ccc(F)cc1F | measured: Nausea | human | oral, 200 mg |  | drug-related TEAE incidence | 0%
CCOc1c([C@H](C)n2nc(C)c3c(N)ncnc32)cc(Cl)c(F)c1[C@@H]1CNC(=O)C1 |  | human patients, plasma | oral, 45 mg once daily, cycle 1 day 15, monotherapy, geometric mean |  | Cmin | 706 nM
Cn1cc(-c2cn3nccc3c(-c3cnn([C@]4(CC#N)C[C@@H](C#N)C4)c3)n2)cn1 |  | healthy humans fed, plasma | 30 mg once daily, day 10, geometric mean |  | Cmin | 6.3 ng/mL
CCCCC/C=C\C/C=C\CCCCCCCC(=O)O.Cc1cc(/C=C/C#N)cc(C)c1Nc1ccnc(Nc2ccc(C#N)cc2)n1 |  | water |  |  | equilibrium solubility | 0.2 ± 0.27 µg/mL
CNC(=O)c1ccc(-c2cnc3ncc(Cc4ccc5ncccc5c4)n3n2)cc1F | measured: Dizziness | cancer patients | oral, 600 mg twice daily, all expansion cohorts, grade 3-4 |  | patients with adverse event | 0%
CCc1nc(C(N)=O)c(Nc2ccc(N3CCC(N4CCN(C)CC4)CC3)c(OC)c2)nc1NC1CCOCC1 |  | Japanese patients, plasma | oral, 200 mg, cycle 0 day -2, single dose, mean |  | Cmax | 221 ng/mL
CNCCOC12CC3(C)CC(C)(CC(Cn4ncc(-c5ccc(N6CCc7cccc(C(=O)Nc8nc9ccccc9s8)c7C6)nc5C(=O)O)c4C)(C3)C1)C2 |  | beagle dog, male, anaesthetised | intravenous bolus, 0.03 mg/kg, 105 min | baseline: baseline | heart rate change | -1%
CC(C)(C(=O)N1CCOc2c(C#N)cncc2C1)C(F)F |  | human, both sexes | oral, 10 mg single dose |  | subjects with myalgia TEAE | 0%
CCOC(=O)N1C[C@@H](c2ccc(Cl)cc2)N[C@H](c2ccc(C(=O)OC)cc2)C1 | shake-flask, LC-HRMS | aqueous buffer | 16 h, pH 6.8 |  | solubility | < 4 µM
O=c1[nH]c(=O)n([C@@H]2O[C@H](CO)[C@@H](O)[C@@H]2F)cc1CCCCC[18F] |  | nude mice, RG2 tumour, spleen | intravenous, dose not given, 2 h |  | biodistribution | 0.11 ± 0.04 %ID/g
N#Cc1ccc2c(c1)[C@H]1CCCN(C(=O)c3ccc4[nH]cnc4c3)[C@H]1C2 |  | human | 20 mg, end of trial |  | minimum ACTH level | 1.3 pmol/L
Cc1ccc(=O)n(-c2ccccc2)c1 |  | healthy human | oral, 600 mg single, alone |  | AUC(0-t), LS geometric mean | 40000 ng·h/mL
O=C(N/N=C/c1ccccc1O)c1ccncc1 |  | DMEM cell medium | 115 µM, 12 h, 5 °C, post-preparative, autosampler |  | stability | 93.4%
CC(C)(C)C[C@@H]1COC[C@H](c2ccc(-c3ccccc3)cc2)N1 | shake-flask, LC-HRMS | aqueous buffer | 16 h, pH 6.8 |  | solubility | < 4 µM

Compound | assay | system | conditions | scale | endpoint | value
Cc1nc2ncnn2c(O)c1NS(=O)(=O)c1ccc(Br)cc1 |  | aqueous buffer | pH 7.4 |  | solubility | 2410 µg/mL
CCN1CCN(Cc2ccc(NC(=O)c3ccc(C)c(NC(=O)c4cncc(-c5cccs5)c4)c3)cc2C(F)(F)F)CC1 |  | C57BL/6 mice, epithelial lining fluid | intraperitoneal, 30 mg/kg |  | apparent volume of distribution | 8.64 L/kg
O=C(O)c1cccc(C(=O)O)c1 |  | betaine/propylene glycol DES-water | DES mass fraction 0.30 |  | apparent dissolution enthalpy | 4.06 kcal/mol
CC(C)(C)c1ccc(O)c(CN(Cc2cc(C(C)(C)C)ccc2O)C2CCC(NC(N)=O)CC2)c1 (stereo not drawn) |  | mouse brain | 5 ng/g, 24 h, 25 °C, short-term storage |  | recovery | 98.27 ± 0.5%
CCc1cc2c(cc1N1CCC(N3CCOCC3)CC1)C(C)(C)c1[nH]c3cc(C#N)ccc3c1C2=O |  | ALK inhibitor-naive patients, body weight below sample A kg | oral, 600 mg twice daily, week 6 |  | average plasma concentration | 1600 nM
CCOC(=O)N1C[C@@H](c2cnn(C)c2)N[C@@H](c2cccc(Br)c2)C1 | shake-flask, LC-HRMS | aqueous buffer | 16 h, pH 6.8 |  | solubility | > 750 µM
[18F]c1ccc(-c2ccc3c(c2)[nH]c2ccncc23)cn1 | ex vivo biodistribution | APP/PS1 mouse, AD model, cerebellum | intravenous, 30 min |  | SUV | 0.471 ± 0.365
COC(=O)N[C@@H](C)CNc1nccc(-c2cn(C(C)C)nc2-c2cc(Cl)cc(NS(C)(=O)=O)c2F)n1 |  | human, plasma | oral, single dose, added: diltiazem | baseline: compound alone | Cmax geometric mean ratio | 145%
Cn1cc([C@H]2C[C@H]3CSC(N)=N[C@@]3(c3ccc(F)cc3F)CO2)cn1 |  | male 129/SVE mouse, brain | subcutaneous, 50 mg/kg, 6 h |  | brain concentration | 3090 nM
NC[C@H](NC(=O)c1ccc(C#CC#Cc2ccccc2)cc1)C(=O)NO |  | aqueous buffer | pH 7.4 |  | solubility | < 2.48 µg/mL
C[C@@H](N)C1CCN(S(=O)(=O)c2cccc3cnccc23)CC1 |  | healthy volunteers | 150 mg, fasted |  | participants with dizziness | 33.3%
COC(=O)c1ccc([C@H]2COC[C@@H](c3cnc(-c4ccccc4)nc3)N2)cc1 | shake-flask, LC-HRMS | aqueous buffer | 16 h, pH 6.8 |  | solubility | < 4 µM
Nc1cccc2ccc(/C=C/C(=O)c3ccccc3)cc12 |  | toluene | 20 °C |  | Stokes shift | 135 nm
COc1cc(C(=O)NC2CCN(C)CC2)c(F)cc1Nc1ncc(C(F)(F)F)c(Oc2cccc3c2C(=O)N(C)C3)n1 |  | human patients, plasma | oral, 25 mg single dose, geometric mean |  | dose-normalised AUC(0-inf) | 157 nmol·h/L per mg
CC(C)C1=NCCc2ccc(NC(=O)c3cc(Br)c4cc(C(=N)N)ccc4c3)cc21 |  | aqueous buffer | pH 7.4 |  | solubility | 95.7 µg/mL
CN[C@@H](C)C(=O)N[C@H]1CN(S(=O)(=O)c2cccc(S(=O)(=O)N3CC[C@H]4CC[C@@H](C(=O)NC(c5ccccc5)c5ccccc5)N4C(=O)[C@@H](NC(=O)[C@H](C)NC)C3)c2)CC[C@H]2CC[C@@H](C(=O)NC(c3ccccc3)c3ccccc3)N2C1=O | LC-MS/MS | human, advanced solid tumours, plasma | intravenous, 7 mg weekly, day 1 |  | AUC(0-t) | 134 ± 3.96 ng·h/mL
N[C@@H]1c2ccccc2OC12CCN(c1cnc3c(N4CCCc5ncccc54)n[nH]c3n1)CC2 |  | advanced metastatic solid tumour patients, plasma | oral, 20 mg once daily, cycle 1 day 1, geometric mean |  | AUC(0-tau) | 1650 ng·h/mL
COc1ccc([C@@H](O)c2cc(-c3ncnc4cc(N5CCOCC5)ccc34)c(F)cc2Cl)nn1 |  | locally advanced rectal cancer | all dose levels overall, added: capecitabine and radiotherapy |  | TEAE, gastrointestinal disorders | 100%
C[C@H](CCC(=O)NCCS(=O)(=O)O)[C@H]1CC[C@H]2[C@@H]3CC[C@@H]4C[C@H](OS(=O)(=O)O)CC[C@]4(C)[C@H]3CC[C@]12C |  | human, plasma | control |  | Cmin | 56.1 ± 9.4 nM
O=C(Nc1nc2cccc(-c3ccc(CN4CCS(=O)(=O)CC4)cc3)n2n1)C1CC1 | measured: aspartate aminotransferase increased | human rheumatoid arthritis patients | oral, 200 mg once daily, 4 weeks, regardless of relatedness |  | treatment-emergent adverse events | 0%
O=C(O)CCC(=O)O.[2H]C([2H])([2H])Oc1cc(C)c2[nH]ccc2c1CN1CC[C@@H](C2CC2)C[C@H]1c1ccc(C(=O)O)cc1 | multiple ascending dose | healthy Chinese subjects | 50 mg twice daily |  | subjects with hyponatraemia | 0%

Excerpt of the above:
Compound | assay | system | conditions | scale | endpoint | value
CCCCc1ccc(C#Cc2ccc(OCC)cc2)cc1 |  | rat, placenta | 5000 ng/mL in perfusate, high dose, mixture of 21 LCMs |  | placental accumulation | 347 ± 509 ng/g
Cc1c([C@@H]2COC[C@H](c3ccc(-c4ccccc4)cc3)N2)cnn1-c1ccccc1 | shake-flask, LC-HRMS | aqueous buffer | 16 h, pH 6.8 |  | solubility | < 4 µM
